# Literature values as cited in several papers.
# Each line is one published result; not all experiments were run side by side.
# Sequence of UniProt P18089 (whole entry, looked up): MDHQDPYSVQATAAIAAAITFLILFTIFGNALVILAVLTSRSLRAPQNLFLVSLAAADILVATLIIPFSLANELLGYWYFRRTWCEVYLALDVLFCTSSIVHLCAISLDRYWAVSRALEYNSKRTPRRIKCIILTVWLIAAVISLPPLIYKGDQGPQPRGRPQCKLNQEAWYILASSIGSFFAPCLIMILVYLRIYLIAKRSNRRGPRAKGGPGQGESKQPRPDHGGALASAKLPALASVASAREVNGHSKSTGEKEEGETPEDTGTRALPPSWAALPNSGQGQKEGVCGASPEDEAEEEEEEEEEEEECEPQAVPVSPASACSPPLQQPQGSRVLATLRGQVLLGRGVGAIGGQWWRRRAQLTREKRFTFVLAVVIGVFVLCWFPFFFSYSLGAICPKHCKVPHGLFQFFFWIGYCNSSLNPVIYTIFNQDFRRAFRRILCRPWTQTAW
# Sequence of UniProt Q9Y2H9 (whole entry, looked up): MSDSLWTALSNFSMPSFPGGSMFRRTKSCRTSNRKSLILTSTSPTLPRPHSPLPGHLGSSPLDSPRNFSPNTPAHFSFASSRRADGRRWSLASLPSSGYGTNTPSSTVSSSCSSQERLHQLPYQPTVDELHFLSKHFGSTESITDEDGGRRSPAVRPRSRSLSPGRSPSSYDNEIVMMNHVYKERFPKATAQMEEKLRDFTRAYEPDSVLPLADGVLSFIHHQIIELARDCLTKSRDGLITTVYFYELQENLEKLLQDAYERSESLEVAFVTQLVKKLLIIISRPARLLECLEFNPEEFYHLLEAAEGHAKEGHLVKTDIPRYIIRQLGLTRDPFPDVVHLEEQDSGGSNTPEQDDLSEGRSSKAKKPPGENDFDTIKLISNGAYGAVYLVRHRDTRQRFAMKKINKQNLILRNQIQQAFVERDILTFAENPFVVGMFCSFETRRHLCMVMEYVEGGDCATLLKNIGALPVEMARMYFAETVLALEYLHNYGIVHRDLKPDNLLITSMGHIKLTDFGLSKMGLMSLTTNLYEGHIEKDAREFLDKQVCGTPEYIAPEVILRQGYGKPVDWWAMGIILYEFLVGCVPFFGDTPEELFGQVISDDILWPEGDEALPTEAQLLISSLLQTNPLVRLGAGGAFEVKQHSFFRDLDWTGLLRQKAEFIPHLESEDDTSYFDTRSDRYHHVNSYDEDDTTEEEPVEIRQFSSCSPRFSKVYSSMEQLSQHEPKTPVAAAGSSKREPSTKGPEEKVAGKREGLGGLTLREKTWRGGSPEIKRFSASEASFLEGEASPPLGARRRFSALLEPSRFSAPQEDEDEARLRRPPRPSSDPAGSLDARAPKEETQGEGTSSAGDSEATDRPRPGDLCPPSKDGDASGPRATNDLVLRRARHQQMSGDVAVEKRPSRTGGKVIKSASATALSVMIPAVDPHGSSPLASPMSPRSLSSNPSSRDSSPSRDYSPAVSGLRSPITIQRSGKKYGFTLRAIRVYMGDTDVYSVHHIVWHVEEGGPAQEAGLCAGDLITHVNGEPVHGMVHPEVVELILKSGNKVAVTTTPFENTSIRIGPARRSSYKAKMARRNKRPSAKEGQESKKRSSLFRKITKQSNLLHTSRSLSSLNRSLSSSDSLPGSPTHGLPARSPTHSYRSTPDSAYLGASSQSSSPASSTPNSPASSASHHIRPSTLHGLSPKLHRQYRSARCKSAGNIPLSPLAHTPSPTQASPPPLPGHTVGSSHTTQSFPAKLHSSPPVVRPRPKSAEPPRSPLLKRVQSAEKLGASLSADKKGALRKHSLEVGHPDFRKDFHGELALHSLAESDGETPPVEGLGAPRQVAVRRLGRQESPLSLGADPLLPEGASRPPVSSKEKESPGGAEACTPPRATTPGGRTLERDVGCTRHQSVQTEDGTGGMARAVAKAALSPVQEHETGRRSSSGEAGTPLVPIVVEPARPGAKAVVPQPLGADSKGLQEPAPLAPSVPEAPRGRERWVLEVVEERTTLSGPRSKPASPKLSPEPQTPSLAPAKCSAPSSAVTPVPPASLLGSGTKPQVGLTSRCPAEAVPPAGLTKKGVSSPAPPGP
Structure (SMILES),target or system,assay,test system,conditions,how to read,measurement,result
Nc1cc(C(F)(F)F)c(-c2nc(N3CCOCC3)nc(N3CCOCC3)n2)cn1,"Microtubule-associated serine/threonine-protein kinase 1 (MAST1, Homo sapiens, UniProt Q9Y2H9)",enzyme activity,,10 µM,relative to: untreated,remaining activity,100%
O=c1[nH]c2nonc2cc1Nc1c(F)c(F)c(F)c(F)c1F,,,mouse,,,half-life,4.4 h
COc1ccc2c(c1)c(CC(=O)O)c(C)n2C(=O)c1ccc(Cl)cc1,,,plasma,,,free Cmax,0.0699 µM
C=CCc1ccc(O)c(-c2ccc(O)c(CC=C)c2)c1,,,water,,,solubility,< 1 mg/mL
Cc1ccc(S(=O)(=O)N2CCCN(C(=O)c3cc(-c4ccccc4)n[nH]3)CC2)cc1,Plasmodium falciparum,whole cell extended time,3D7,72 h,,IC50,0.08 µM
Cc1nc(Nc2ncc(C(=O)Nc3c(C)cccc3Cl)s2)cc(N2CCN(CCO)CC2)n1,,,,pH 6.99,,aqueous solubility,< 0.001 mg/mL
Cc1cc(-c2nccc3c2ccn3CC(=O)Nc2ccc(-c3cnccn3)cn2)ccn1,,,dog,"3 mg/kg/day, 1 month, repeat dosing",,"AUC(0-24 h), total",990 nM·h
CCCCCCCCCCCCCCCC(=O)N[C@@H](CCC(=O)NCCCC[C@@H]1NC(=O)[C@H]([C@@H](C)CC)NC(=O)[C@@H](NC(=O)[C@@H]2CCCN2C(=O)[C@H](Cc2ccccc2)NC(=O)[C@H](Cc2c[nH]cn2)NC(=O)[C@@H](NC(=O)[C@H](CC(=O)O)NC(=O)CC(C)C)[C@@H](C)O)CSSC[C@@H](C(=O)N[C@@H](CCCCN)C(N)=O)NC(=O)CNC(=O)[C@H](CCCCN)NC(=O)[C@H](CO)NC(=O)[C@H](CCCNC(=N)N)NC(=O)[C@@H]2CCCN2C(=O)[C@H](CCC(=O)O)NC(=O)[C@H](Cc2ccccc2)NC1=O)C(=O)O,,,cynomolgus monkey,"subcutaneous, 0.3 mg/kg",,elimination half-life,~24 h
CNCCC(Oc1ccc(C(F)(F)F)cc1)c1ccccc1 (centres unmarked),,,human,,,free Cmax,0.0709 µM
CN/C(=N/CCSCc1nc[nH]c1C)NC#N,,,human liver microsomes,,,CLint,2.87 µL/min/mg protein
Cc1cc(C)c(CNC(=O)c2cc(Cl)c3c(c2C)O[C@@](C)([C@H]2CC[C@H](N(C)C)CC2)O3)c(=O)[nH]1,,,human,"oral, 200 mg single",relative to: dose,urinary excretion unchanged,10%
C[C@H]1COCCN1c1nc(-c2cnc(N)cc2C(F)F)nc(N2CCOCC2)n1,SNU-C2B,,,,,GI50,0.728 µM
COCC(=O)O[C@]1(CCN(C)CCCc2nc3ccccc3[nH]2)CCc2cc(F)ccc2[C@@H]1C(C)C,,,plasma,"concentration not given, total, steady state",,Cmax,2.9 µM
CCC1=C(CC)/C(=C/NC23CC4CC(CC(C4)C2)C3)N=C1c1ccc[nH]1,,,human liver microsomes,,,t1/2,> 1 h
C=CC[C@@H]1/C=C(\C)C[C@H](C)C[C@H](OC)[C@H]2O[C@@](O)(C(=O)C(=O)N3CCCC[C@H]3C(=O)O[C@H](/C(C)=C/[C@@H]3CC[C@@H](O)[C@H](OC)C3)[C@H](C)[C@@H](O)CC1=O)[C@H](C)C[C@@H]2OC,,,human,"concentration not given, clinical",,diarrhoea incidence,72%
CCCCN(CCCC)CCC(O)c1cc2c(Cl)cc(Cl)cc2c2cc(C(F)(F)F)ccc12 (centres unmarked),,,human,,,free Cmax,0.172 µM
C[Si]1(C)O[Si](C)(C)O[Si](C)(C)O[Si](C)(C)O[Si](C)(C)O1,,slow-stirring method,1-octanol/water,25 °C,,log KOW,8.03
Nc1ccn([C@@H]2O[C@H](CO)[C@@H](O)C2(F)F)c(=O)n1,,,metastatic pancreatic cancer patients,dose not given,,grade 3 peripheral neuropathy,1%
CNC(=O)c1c(C)oc2cc(Oc3ncnc4cc(OC)c(OC)cc34)ccc12,,,human,dose not given,,elimination half-life,~42 h
COCCc1ccc(OC[C@@H](O)CNC(C)C)cc1,,,human,"oral, 100 mg single, enantiomer",,AUCtau,0.259 µg·h/mL
CC(=O)OCC(CCn1cnc2cnc(N)nc21)COC(C)=O,,,human,,,oral bioavailability,77%
c1ccc2ccccc2c1,,,fish,"dose not given, experimental mean",,bioconcentration factor,545 L/kg
C[C@@H](O)[C@H]1C(=O)N2C(C(=O)O)=C(SCCN=CN)C[C@H]12,,"perpetrator, refers to: valproic acid",human,dose not given,relative to: without compound,half-life reduction,51%
C#C[C@]1(O)CC[C@H]2[C@@H]3CCc4cc(O)ccc4[C@H]3CC[C@@]21C,,,"human, fed","0.025 mg, multiple doses",,"AUC(0-24 h), mean",0.000799 µg·h/mL
CNC(=O)[C@@]12C[C@@H]1[C@@H](n1cnc3c(NCc4cccc(Cl)c4)nc(C#Cc4ccc(F)c(F)c4)nc31)[C@H](O)[C@@H]2O,"Alpha-2B adrenergic receptor (ADRA2B, Homo sapiens, UniProt P18089)",radioligand binding (PDSP),,,,Ki,1 to 10 µM
Cc1cc(=O)c(-c2ccc(Oc3ccc(C(F)(F)F)cc3)cc2)c(C)n1O,Plasmodium falciparum,whole cell extended time,3D7,72 h,,IC50,0.6 µM
CNCc1cc(-c2ccccc2F)n(S(=O)(=O)c2cccnc2)c1,,,human,"20 mg, single dose",,AUC(0-inf),0.174 µg·h/mL
Cn1c(Cn2ccc(C(F)(F)F)c(Oc3cc(Cl)cc(C#N)c3)c2=O)n[nH]c1=O,,,human subjects,"dose not given, up to 48 weeks",,Nasopharyngitis incidence,7.8%
COc1ccccc1Oc1cccc(CN2CCC(NC(=O)C(CCN3CCCC3)c3ccccc3)CC2)c1 (centres unmarked),human CCR8 F123A mutant (TM3),"IP accumulation, agonist",,,,EC50,0.005 µM
COC1CC2CCC(C)C(O)(O2)C(=O)C(=O)N2CCCCC2C(=O)OC(C(C)CC2CCC(OCCO)C(OC)C2)CC(=O)C(C)/C=C(\C)C(O)C(OC)C(=O)C(C)CC(C)/C=C/C=C/C=C/1C (centres unmarked),,,water,,,solubility,< 1 mg/mL
COc1cc2c(Oc3ccc4[nH]c(C)cc4c3F)ccnc2cc1OCC1(N)CC1,,,adult humans,12 mg/day continuous,,"Cmin,ss",0.02 to 0.05 µg/mL
C[Si](C)(C)O[Si](C)(C)C,,HPLC retention correlation,1-octanol/water,25 °C,,log KOW,4.2
Nc1nc2c(ncn2COCCO)c(=O)[nH]1,,,human,800 mg,,oral bioavailability,10 to 20%
CC1(C)S[C@@H]2[C@H](NC(=O)[C@H](N)c3ccccc3)C(=O)N2[C@H]1C(=O)O,Pseudomonas aeruginosa,,clinical isolate RKI-No_589/12,,,MIC,> 16 mg/L
Cc1ncc(CO)c(C=NNC(=O)c2ccccc2Cl)c1O,,,rabbit,"intravenous, dose not given",,half-life,0.467 h
CN(C)C(=O)c1cc2cnc(Nc3ccc(N4CCNCC4)cn3)nc2n1C1CCCC1,,,"human, urine","oral, 600 mg, radiolabelled",relative to: dose,dose excreted,22.6%
Nc1nc(O)c2ncn(COC(CO)CO)c2n1,,,human,1000 mg three times daily,,oral bioavailability,8.53%
CCCCOc1ccc(CC(=O)NO)cc1,,,water,,,solubility,< 1 mg/mL
CCCN(CCC)S(=O)(=O)c1ccc(C(=O)O)cc1,,,human serum albumin,concentration not given,,"HSA binding, literature value",95%
CC(C)[C@H](N)C(=O)OCCOCn1cnc2c(=O)[nH]c(N)nc21,,,human,,,oral bioavailability,83%
Cc1ccc(NC(=O)c2ccc(CN3CCN(C)CC3)cc2)cc1Nc1nc(-c2cccnc2)cs1,,,"human, urine","time not given, parent plus metabolites",,dose recovered in urine,~10%
Cn1c(=O)c2[nH]cnc2n(C)c1=O,,,plasma,literature data,,free Cmax,7.06 µM
C[C@@H](Oc1cc(-c2cnn(C3CCNCC3)c2)cnc1N)c1c(Cl)ccc(F)c1Cl,,,FaSSIF,literature value,,solubility,0.743 mg/mL
COc1cc(C(C)=O)ccc1OCCCN1CCC(c2noc3cc(F)ccc23)CC1,,,water,,,solubility,< 1 mg/mL
CCN1CCN(Cc2ccc(Nc3ncc(F)c(-c4cc(F)c5nc(C)n(C(C)C)c5c4)n3)nc2)CC1,,,"healthy human, plasma","150 mg single dose, added: [14C]compound",,parent share of plasma drug material,34%
CCc1cc(/C(C)=N/OCc2ccc(C3CCCCC3)c(C(F)(F)F)c2)ccc1CN1CC(C(=O)O)C1,,population PK,"human, CYP2C9*1/*1",,,clearance,3.12 L/h
NC(=O)CC[C@@H]1NC(=O)[C@H](Cc2ccccc2)NC(=O)[C@H](Cc2ccc(O)cc2)NC(=O)CCSSC[C@@H](C(=O)N2CCC[C@H]2C(=O)N[C@H](CCCN=C(N)N)C(=O)NCC(N)=O)NC(=O)[C@H](CC(N)=O)NC1=O,,,"human, von Willebrand disease patients","intravenous, 0.3 µg/kg",,volume of distribution,25.9 L
COc1ccnc(C[S+]([O-])c2nc3ccc(OC(F)F)cc3[nH]2)c1OC (centres unmarked),,,supercritical CO2,,,crossover pressure,150 to 170 bar
CNC(C)C1CCC(N)C(OC2C(N)CC(N)C(OC3OCC(C)(O)C(NC)C3O)C2O)O1 (centres unmarked),Pseudomonas aeruginosa,,clinical isolate RKI-No_589/12,,,MIC,8 mg/L
CC1=C(/C=C/C(C)=C/C=C/C(C)=C/C(=O)O)C(C)(C)CCC1,,,water,,,solubility,< 1 mg/mL
CCN(CC)CCNC(=O)c1c(C)[nH]c(/C=C2\C(=O)Nc3ccc(F)cc32)c1C,,,FaSSIF,literature value,,solubility,0.0105 mg/mL
CC(C)(C)c1cc(C(C)(C)C)c(NC(=O)c2c[nH]c3ccccc3c2=O)cc1O,,,non-pregnant cystic fibrosis patients,,,elimination half-life,15 h
COc1cccc2c1C(=O)c1c(O)c3c(c(O)c1C2=O)C[C@@](O)(C(=O)CO)C[C@@H]3O[C@H]1C[C@H](N)[C@H](O)[C@H](C)O1,,,human,,,free Cmax,0.419 µM
Cc1nc2ccc(F)cc2n1-c1nc(N)c(F)c(Nc2ccc(C(F)(F)F)cc2)n1,,,patients with advanced solid tumours,"oral capsule, 10.4 mg/kg",,terminal half-life,19.9 h
CCN(CC)CCNC(=O)c1c(C)[nH]c(/C=C2\C(=O)Nc3ccc(F)cc32)c1C,,,plasma,"concentration not given, total, steady state",,Cmax,0.21 µM
COc1cc2ncnc(Nc3ccc(F)c(Cl)c3)c2cc1OCCCN1CCOCC1,,,human,"concentration not given, added: with food",,increase in drug exposure,32%

# A few entries again:
Structure (SMILES),target or system,assay,test system,conditions,how to read,measurement,result
Cc1ccc(NC(=O)c2ccc(CN3CCN(C)CC3)cc2)cc1Nc1nc(-c2cccnc2)cs1,,,"human, urine","time not given, parent plus metabolites",,dose recovered in urine,~10%
CC1=C(/C=C/C(C)=C/C=C/C(C)=C/C(=O)O)C(C)(C)CCC1,,,water,,,solubility,< 1 mg/mL
CCC1=C(CC)/C(=C/NC23CC4CC(CC(C4)C2)C3)N=C1c1ccc[nH]1,,,human liver microsomes,,,t1/2,> 1 h
CCN(CC)CCNC(=O)c1c(C)[nH]c(/C=C2\C(=O)Nc3ccc(F)cc32)c1C,,,FaSSIF,literature value,,solubility,0.0105 mg/mL
C[C@@H](Oc1cc(-c2cnn(C3CCNCC3)c2)cnc1N)c1c(Cl)ccc(F)c1Cl,,,FaSSIF,literature value,,solubility,0.743 mg/mL
COc1cc2ncnc(Nc3ccc(F)c(Cl)c3)c2cc1OCCCN1CCOCC1,,,human,"concentration not given, added: with food",,increase in drug exposure,32%
CC1(C)S[C@@H]2[C@H](NC(=O)[C@H](N)c3ccccc3)C(=O)N2[C@H]1C(=O)O,Pseudomonas aeruginosa,,clinical isolate RKI-No_589/12,,,MIC,> 16 mg/L
C[C@@H](O)[C@H]1C(=O)N2C(C(=O)O)=C(SCCN=CN)C[C@H]12,,"perpetrator, refers to: valproic acid",human,dose not given,relative to: without compound,half-life reduction,51%
